{"data": "Results from different studies", "7-alpha-hydroxycholest-4-en-3-one 12-alpha-hydroxylase": "7-alpha-hydroxycholest-4-en-3-one 12-alpha-hydroxylase (Homo sapiens, UniProt Q9UNU6)", "SLC22A1": "Solute carrier family 22 member 1 (SLC22A1, Homo sapiens, UniProt O15245)", "CYP2E1": "Cytochrome P450 2E1 (CYP2E1, Homo sapiens, UniProt P05181)", "SCN5A": "Sodium channel protein type 5 subunit alpha (SCN5A, Homo sapiens, UniProt Q14524)", "CYP1A2": "Cytochrome P450 1A2 (CYP1A2, Homo sapiens, UniProt P05177)", "note": "“And” joins repeats or separate records; there may be more than shown. ± gives the spread as reported.", "sequence of UniProt Q14524 (whole entry, looked up)": "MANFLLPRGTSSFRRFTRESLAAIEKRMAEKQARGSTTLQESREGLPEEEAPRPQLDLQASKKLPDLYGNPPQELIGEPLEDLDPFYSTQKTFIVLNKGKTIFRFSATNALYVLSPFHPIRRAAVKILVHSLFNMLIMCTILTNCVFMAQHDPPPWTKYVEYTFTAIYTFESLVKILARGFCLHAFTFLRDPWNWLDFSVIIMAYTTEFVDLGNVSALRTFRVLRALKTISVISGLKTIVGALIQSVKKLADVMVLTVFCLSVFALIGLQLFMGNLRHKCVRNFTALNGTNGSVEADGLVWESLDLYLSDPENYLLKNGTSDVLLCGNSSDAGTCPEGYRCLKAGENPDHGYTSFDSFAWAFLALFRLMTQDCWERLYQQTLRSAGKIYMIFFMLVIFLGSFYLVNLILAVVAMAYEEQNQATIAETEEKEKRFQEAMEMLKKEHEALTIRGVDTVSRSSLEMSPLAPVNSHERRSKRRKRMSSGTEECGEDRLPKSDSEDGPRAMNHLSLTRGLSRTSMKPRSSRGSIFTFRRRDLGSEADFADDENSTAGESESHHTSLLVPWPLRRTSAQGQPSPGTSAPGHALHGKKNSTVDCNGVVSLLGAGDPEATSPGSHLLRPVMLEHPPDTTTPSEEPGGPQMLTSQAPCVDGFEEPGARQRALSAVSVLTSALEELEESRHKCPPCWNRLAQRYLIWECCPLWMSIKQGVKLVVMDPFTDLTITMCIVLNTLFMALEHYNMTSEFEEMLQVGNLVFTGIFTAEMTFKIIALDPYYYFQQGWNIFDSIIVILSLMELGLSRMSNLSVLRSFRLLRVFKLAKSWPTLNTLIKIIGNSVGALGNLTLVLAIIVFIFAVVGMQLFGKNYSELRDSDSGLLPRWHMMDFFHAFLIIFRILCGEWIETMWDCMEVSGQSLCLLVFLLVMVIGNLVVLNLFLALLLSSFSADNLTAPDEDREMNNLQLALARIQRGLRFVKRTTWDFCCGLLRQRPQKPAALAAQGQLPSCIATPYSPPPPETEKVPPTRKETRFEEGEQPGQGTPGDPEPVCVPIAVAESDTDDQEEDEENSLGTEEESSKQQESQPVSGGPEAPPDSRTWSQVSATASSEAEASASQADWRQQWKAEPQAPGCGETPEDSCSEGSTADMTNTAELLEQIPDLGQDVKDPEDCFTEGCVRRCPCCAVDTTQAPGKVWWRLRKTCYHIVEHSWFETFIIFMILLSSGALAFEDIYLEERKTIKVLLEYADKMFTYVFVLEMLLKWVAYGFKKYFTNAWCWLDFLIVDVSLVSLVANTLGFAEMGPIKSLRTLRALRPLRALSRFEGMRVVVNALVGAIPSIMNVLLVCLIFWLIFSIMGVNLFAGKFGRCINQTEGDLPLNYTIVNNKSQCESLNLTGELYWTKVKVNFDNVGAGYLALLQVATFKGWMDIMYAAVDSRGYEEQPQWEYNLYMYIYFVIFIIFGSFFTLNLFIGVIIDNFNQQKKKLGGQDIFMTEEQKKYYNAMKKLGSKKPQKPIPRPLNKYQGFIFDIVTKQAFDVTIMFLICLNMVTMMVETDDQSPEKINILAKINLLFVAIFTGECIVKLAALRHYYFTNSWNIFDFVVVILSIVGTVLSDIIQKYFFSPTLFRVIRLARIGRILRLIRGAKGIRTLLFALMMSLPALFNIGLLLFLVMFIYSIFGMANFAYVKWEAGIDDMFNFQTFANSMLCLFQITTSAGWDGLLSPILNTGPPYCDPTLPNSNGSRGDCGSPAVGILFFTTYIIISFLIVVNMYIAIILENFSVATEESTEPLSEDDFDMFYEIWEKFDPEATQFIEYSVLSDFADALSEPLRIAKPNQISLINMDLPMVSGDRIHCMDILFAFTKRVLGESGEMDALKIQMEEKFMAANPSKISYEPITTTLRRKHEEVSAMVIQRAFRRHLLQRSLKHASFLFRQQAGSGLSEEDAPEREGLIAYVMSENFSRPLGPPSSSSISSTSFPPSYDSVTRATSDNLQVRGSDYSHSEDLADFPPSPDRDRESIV", "sequence of UniProt O15245 (whole entry, looked up)": "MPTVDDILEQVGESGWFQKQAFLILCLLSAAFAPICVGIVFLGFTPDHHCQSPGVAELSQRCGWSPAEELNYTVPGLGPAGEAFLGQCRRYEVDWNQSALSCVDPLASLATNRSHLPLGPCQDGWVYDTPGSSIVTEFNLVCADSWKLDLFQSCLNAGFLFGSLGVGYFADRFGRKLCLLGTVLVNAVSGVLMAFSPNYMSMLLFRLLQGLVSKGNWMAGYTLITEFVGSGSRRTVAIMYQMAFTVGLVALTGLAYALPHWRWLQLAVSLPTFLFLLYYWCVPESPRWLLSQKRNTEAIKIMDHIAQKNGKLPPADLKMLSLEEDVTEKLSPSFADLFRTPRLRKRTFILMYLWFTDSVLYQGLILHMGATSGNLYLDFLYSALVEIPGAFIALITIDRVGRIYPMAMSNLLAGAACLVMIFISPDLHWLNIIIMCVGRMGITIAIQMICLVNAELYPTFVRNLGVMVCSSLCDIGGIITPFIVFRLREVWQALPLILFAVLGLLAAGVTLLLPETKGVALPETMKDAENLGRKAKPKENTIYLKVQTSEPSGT", "sequence of UniProt Q9UNU6 (whole entry, looked up)": "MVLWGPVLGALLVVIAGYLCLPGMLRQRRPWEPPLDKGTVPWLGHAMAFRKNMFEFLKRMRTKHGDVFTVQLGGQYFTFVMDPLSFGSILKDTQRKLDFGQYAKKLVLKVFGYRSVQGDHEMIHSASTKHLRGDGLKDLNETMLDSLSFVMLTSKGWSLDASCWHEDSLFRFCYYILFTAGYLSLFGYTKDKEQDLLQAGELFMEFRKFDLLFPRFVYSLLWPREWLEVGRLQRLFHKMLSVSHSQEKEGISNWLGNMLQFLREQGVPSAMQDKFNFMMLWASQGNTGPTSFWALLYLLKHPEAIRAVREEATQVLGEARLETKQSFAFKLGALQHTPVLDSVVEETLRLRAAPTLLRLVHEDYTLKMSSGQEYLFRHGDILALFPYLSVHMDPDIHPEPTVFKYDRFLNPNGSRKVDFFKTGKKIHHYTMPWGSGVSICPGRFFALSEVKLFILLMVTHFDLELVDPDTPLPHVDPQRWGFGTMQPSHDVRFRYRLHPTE", "sequence of UniProt P05181 (whole entry, looked up)": "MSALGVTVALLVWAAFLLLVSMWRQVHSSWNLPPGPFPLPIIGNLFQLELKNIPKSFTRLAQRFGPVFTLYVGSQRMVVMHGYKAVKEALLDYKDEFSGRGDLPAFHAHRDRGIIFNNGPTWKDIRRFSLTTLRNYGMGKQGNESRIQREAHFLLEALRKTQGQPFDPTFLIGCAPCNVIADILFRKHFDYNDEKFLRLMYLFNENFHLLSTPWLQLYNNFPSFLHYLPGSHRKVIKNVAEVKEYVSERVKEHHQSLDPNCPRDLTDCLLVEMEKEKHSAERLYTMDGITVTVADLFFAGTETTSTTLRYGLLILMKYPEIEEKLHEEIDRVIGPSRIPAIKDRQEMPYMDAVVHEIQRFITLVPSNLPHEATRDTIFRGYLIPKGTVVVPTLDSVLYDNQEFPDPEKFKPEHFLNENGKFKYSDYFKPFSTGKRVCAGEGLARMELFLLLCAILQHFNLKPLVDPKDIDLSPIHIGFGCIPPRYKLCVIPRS", "sequence of UniProt P06873 (whole entry, looked up)": "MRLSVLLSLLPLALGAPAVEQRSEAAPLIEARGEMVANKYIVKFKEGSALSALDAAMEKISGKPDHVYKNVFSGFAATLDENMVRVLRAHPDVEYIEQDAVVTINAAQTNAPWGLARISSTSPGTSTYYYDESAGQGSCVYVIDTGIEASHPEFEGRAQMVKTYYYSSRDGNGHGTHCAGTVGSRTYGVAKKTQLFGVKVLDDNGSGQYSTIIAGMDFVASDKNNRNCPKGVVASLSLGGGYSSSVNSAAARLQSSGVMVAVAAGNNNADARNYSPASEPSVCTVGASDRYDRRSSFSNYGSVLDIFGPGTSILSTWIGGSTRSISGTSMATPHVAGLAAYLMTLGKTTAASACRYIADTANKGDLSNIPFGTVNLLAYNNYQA", "sequence of UniProt Q96FL8 (whole entry, looked up)": "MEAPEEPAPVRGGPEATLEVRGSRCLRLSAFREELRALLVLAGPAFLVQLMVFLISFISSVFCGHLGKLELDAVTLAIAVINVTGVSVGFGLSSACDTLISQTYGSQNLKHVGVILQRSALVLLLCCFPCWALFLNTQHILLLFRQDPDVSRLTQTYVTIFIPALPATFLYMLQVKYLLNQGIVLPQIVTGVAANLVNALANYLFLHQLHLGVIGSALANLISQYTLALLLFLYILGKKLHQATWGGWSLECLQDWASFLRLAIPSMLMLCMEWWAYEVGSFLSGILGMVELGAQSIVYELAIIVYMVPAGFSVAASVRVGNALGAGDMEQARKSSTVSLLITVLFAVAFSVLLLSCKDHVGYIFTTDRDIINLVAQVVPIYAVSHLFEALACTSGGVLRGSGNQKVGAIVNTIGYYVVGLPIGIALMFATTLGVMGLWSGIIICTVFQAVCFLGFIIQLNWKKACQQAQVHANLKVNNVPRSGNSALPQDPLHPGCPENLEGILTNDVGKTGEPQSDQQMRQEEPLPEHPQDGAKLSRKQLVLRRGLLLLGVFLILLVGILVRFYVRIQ"}
{"Structure (SMILES)": "CC12CCC(=O)C=C1CCC1C2C=C(c2cccnc2)C2(C)C(=O)CCC12 (stereo not drawn)", "tested on": "7-alpha-hydroxycholest-4-en-3-one 12-alpha-hydroxylase", "test": "inhibitor", "setting": "80 µM, with: 7α-hydroxycholest-4-en-3-one", "endpoint": "inhibition", "value": "no effect"}
{"Structure (SMILES)": "CSc1nc2[nH]nc([N+](=O)[O-])c(=O)n2n1", "tested on": "SLC22A1", "test": "transport, inhibitor", "system": "transiently transfected cells", "setting": "100 µM, 10 (unit not given), with: metformin", "endpoint": "inhibition", "value": "-3.1%"}
{"Structure (SMILES)": "COC(=O)[C@@H](NC(=O)c1nn(Cc2ccc(F)cc2)c2cc(OCCCCNC(=N)N)ccc12)C(C)(C)C", "tested on": "central CB1 receptor", "system": "mouse", "setting": "intraperitoneal", "endpoint": "lowest dose producing hypothermia", "value": "20 mg/kg"}
{"Structure (SMILES)": "CC(=O)NCCCC[C@@H]1NC(=O)[C@H](Cc2c[nH]c3c(C)cccc23)NC(=O)[C@H]([C@@H](C)O)NC(=O)[C@H](CC(N)=O)NC(=O)[C@@H](NC(C)=O)C(C)(C)SSC(C)(C)[C@@H](C(=O)N[C@@H](Cc2ccc(OCCN)cc2)C(=O)N[C@@H](Cc2ccc3ccccc3c2)C(=O)NC2(C(=O)N[C@@H](CCC(=O)O)C(=O)N[C@@H](CC(N)=O)C(=O)N[C@@H](Cc3cccnc3)C(=O)N(C)CC(N)=O)CCOCC2)NC1=O", "tested on": "human alpha-1-acid glycoprotein 0.07%", "test": "equilibrium dialysis", "setting": "0.01 µM", "endpoint": "fraction unbound", "value": "93.3 ± 0.6%"}
{"Structure (SMILES)": "O=C(O)c1ccc(-c2nc(-c3ccccc3Cl)c3sccn23)cc1", "tested on": "KCNQ1 potassium channel", "test": "radioligand binding", "setting": "10 µM", "how to read": "reference: control", "endpoint": "specific binding", "value": "95.6% and 100%"}
{"Structure (SMILES)": "CNC(=O)C1OC(n2cnc3c(NCc4cccc(I)c4)ncnc32)C(O)C1O (stereo not drawn)", "tested on": "SLC22A1", "test": "transport, inhibitor", "system": "transiently transfected cells", "setting": "100 µM, 10 (unit not given), with: metformin", "endpoint": "inhibition", "value": "81.3%"}
{"Structure (SMILES)": "Cc1cc(Br)c(O)c(Br)c1", "tested on": "CYP2E1", "test": "p-nitrophenol hydroxylation, inhibitor", "setting": "with additive 100 µM", "endpoint": "IC50", "value": "17 µM"}
{"Structure (SMILES)": "CC(C)NCCCn1c(Sc2cc3c(cc2I)OCO3)nc2c(N)ncnc21", "tested on": "epichaperome", "test": "PU-PET", "system": "human, left lymph node lesion", "setting": "140 mg/m^2, 24 h post-injection", "endpoint": "tumour concentration", "value": "2.3 µM"}
{"Structure (SMILES)": "CC(=O)N[C@@H](CC(C)C)C(=O)N[C@H](C(=O)N[C@@H](Cc1ccccc1)C(=O)N[C@@]1(C)CSCCCCCCCCSC[C@@](C)(C(=O)N[C@@H](CO)C(N)=O)NC(=O)[C@H](CC(C)C)NC(=O)[C@H](CCC(N)=O)NC(=O)[C@H](C)NC(=O)[C@H](Cc2c[nH]c3ccccc23)NC(=O)[C@H](Cc2ccc(O)cc2)NC(=O)[C@H](CCC(=O)O)NC1=O)[C@@H](C)O", "tested on": "Proteinase K (PROK, Engyodontium album, UniProt P06873)", "test": "proteolytic stability", "setting": "120 min", "endpoint": "remaining intact peptide", "value": "100%"}
{"Structure (SMILES)": "C/C(=N\\OCCCN1CCCCC1)c1ccc(C(F)(F)F)cc1", "tested on": "SCN5A", "test": "ion current, antagonist, automated patch clamp", "setting": "10 µM", "endpoint": "inhibition", "value": "5.65%"}
{"Structure (SMILES)": "CCN(CC)CCOc1ccc(-c2nnn(Cc3ccc(OC)cc3)c2N)cc1", "tested on": "CYP1A2", "test": "inhibitor", "endpoint": "IC50", "value": "> 50 µM"}
{"Structure (SMILES)": "C[C@@H](c1ccc2nccn2c1)n1nnc2nc(O)c(-c3cnn(C)c3)nc21", "tested on": "CYP1A2", "test": "enzyme activity, inhibitor", "system": "human, liver microsomes", "endpoint": "IC50", "value": "> 50 µM"}
{"Structure (SMILES)": "C[C@@]12C(=O)CC[C@H]1[C@@H]1CC=C3C[C@@H](O)CC[C@]3(C)[C@H]1C=C2c1cccnc1", "tested on": "7-alpha-hydroxycholest-4-en-3-one 12-alpha-hydroxylase", "test": "inhibitor", "setting": "80 µM, with: 7α-hydroxycholest-4-en-3-one", "endpoint": "inhibition", "value": "no effect"}
{"Structure (SMILES)": "Cc1cc(Nc2nc(C[C@@]3(C(=O)O)CCN(Cc4cccc(Cl)c4F)[C@H](C)C3)cc(C)c2F)n[nH]1", "tested on": "SCN5A", "setting": "10 µM, safety pharmacology panel", "endpoint": "inhibition", "value": "-2.15%"}
{"Structure (SMILES)": "CNC(=O)C1CCCN(C(=O)C2CC3CCC2N3C(=O)[C@@H]2C[C@@H](O)CN2C(=O)NCc2cccc(Cl)c2F)C1 (mixture of isomers)", "tested on": "CYP3A4 (human)", "test": "inhibitor, time-dependent inhibition", "setting": "0.0686 µM, preincubated with NADPH, with: midazolam substrate", "how to read": "reference: negative control", "endpoint": "remaining activity", "value": "103%"}
{"Structure (SMILES)": "Oc1c(Br)cccc1Br", "tested on": "CYP2E1", "test": "p-nitrophenol hydroxylation, inhibitor", "setting": "with additive 100 µM", "endpoint": "Ki", "value": "4.3 µM"}
{"Structure (SMILES)": "C[C@]12CC[C@H]3[C@@H](CC[C@H]4C[C@H](O)CC[C@@]43C)[C@@H]1CC(=O)C2", "tested on": "SCN5A", "test": "ion current, blocker", "endpoint": "IC50", "value": "19.4 µM"}
{"Structure (SMILES)": "Cc1cc(-c2ccc3ccccc3c2)nnc1NCCN1CCN(C)CC1", "tested on": "SLC47A1 (Homo sapiens, UniProt Q96FL8)", "test": "transporter uptake, inhibitor", "setting": "10 µM", "endpoint": "inhibition", "value": "89%"}
{"Structure (SMILES)": "O=C1NC2(CC2)COc2ncc(F)cc2[C@H]2COCCN2c2ccn3ncc1c3n2", "system": "Sprague-Dawley rat, female, spleen", "setting": "oral, 2.5 mg/kg/day, 4 weeks dosing, end of recovery", "endpoint": "organ-to-body weight ratio", "value": "0.277 ± 0.083%"}
{"Structure (SMILES)": "C[C@@H](c1ccc2nccn2c1)n1nnc2ncc(-c3cn[nH]c3)nc21", "tested on": "CYP1A2", "system": "human liver microsomes", "setting": "10 and 50 µM, 30 min preincubation, with: ± NADPH", "endpoint": "time-dependent inhibition", "value": "< 20%"}
{"Structure (SMILES)": "CC12CCC3C4CCC(C#N)CC4CCC3C1CCC2O (stereo not drawn)", "tested on": "SCN5A", "test": "ion current, blocker", "endpoint": "IC50", "value": "26 µM"}
{"note": "Repeated from above:"}
{"Structure (SMILES)": "O=C(O)c1ccc(-c2nc(-c3ccccc3Cl)c3sccn23)cc1", "tested on": "KCNQ1 potassium channel", "test": "radioligand binding", "setting": "10 µM", "how to read": "reference: control", "endpoint": "specific binding", "value": "95.6% and 100%"}
{"Structure (SMILES)": "CNC(=O)C1OC(n2cnc3c(NCc4cccc(I)c4)ncnc32)C(O)C1O (stereo not drawn)", "tested on": "SLC22A1", "test": "transport, inhibitor", "system": "transiently transfected cells", "setting": "100 µM, 10 (unit not given), with: metformin", "endpoint": "inhibition", "value": "81.3%"}
{"Structure (SMILES)": "Cc1cc(Br)c(O)c(Br)c1", "tested on": "CYP2E1", "test": "p-nitrophenol hydroxylation, inhibitor", "setting": "with additive 100 µM", "endpoint": "IC50", "value": "17 µM"}
